# Results gathered from unrelated publications.
# Every numbered part comes from another study and shows a few of its results, in no order. Changes are numbered by the printed parent chain.

# Sample 1
# Variant: T154S
# Target: ABI1, truncated, D143A, DHFR fusion (Arabidopsis thaliana)
# Method: DHFR PCA, deep sequencing
# Sample: yeast
# Setting: methotrexate growth selection, single substitutions
# Relative to: wild-type fitted maximum
# Direction: higher = stronger binding
# Parent: PYL1, truncated, DHFR fusion (Arabidopsis thaliana); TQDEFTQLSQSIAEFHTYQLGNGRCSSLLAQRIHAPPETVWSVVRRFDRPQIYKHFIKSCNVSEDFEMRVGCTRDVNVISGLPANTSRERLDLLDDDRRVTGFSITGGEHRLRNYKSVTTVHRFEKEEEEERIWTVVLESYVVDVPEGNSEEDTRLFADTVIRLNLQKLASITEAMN; partner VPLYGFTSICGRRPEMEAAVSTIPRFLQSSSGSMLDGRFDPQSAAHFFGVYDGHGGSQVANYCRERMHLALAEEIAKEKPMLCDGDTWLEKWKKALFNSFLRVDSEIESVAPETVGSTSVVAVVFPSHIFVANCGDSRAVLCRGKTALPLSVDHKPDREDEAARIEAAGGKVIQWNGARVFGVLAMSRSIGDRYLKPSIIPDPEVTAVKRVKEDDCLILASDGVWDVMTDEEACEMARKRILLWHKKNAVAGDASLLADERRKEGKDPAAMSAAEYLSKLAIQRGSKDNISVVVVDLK
with,relative binding score [%]
(+)-ABA 0.0091 µM,-0.189
(+)-ABA 0.032 µM,-5.19
(+)-ABA 2500 µM,84.1
(+)-ABA 1.4 µM,-16.4
(+)-ABA 200 µM,50.9
(+)-ABA 0.11 µM,-4.3

# Sample 2
# Target: Centromere-binding protein 1, full length, N-terminal tag (CBF1, Saccharomyces cerevisiae, UniProt P17106, residues 1-351)
# UniProt P17106, sequence (whole entry, looked up): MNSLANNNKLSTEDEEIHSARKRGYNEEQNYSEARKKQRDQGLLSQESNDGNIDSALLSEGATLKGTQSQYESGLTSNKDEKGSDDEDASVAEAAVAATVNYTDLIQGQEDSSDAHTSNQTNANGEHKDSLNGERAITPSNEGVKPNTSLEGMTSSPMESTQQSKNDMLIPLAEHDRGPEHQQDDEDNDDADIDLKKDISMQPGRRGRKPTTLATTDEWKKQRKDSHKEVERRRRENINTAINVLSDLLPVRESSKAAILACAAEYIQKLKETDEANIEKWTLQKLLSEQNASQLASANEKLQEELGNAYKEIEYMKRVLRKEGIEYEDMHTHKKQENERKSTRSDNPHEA
# Method: protein-binding microarray
# Molecule type: double-stranded DNA, one strand shown
# Sample: in vitro
# Tested at: 0.8 µM
# Setting: whole 60-bp probe, no competitor
# Direction: higher = stronger binding
# Shared flanks, not repeated: … GTCTTGATTCGCTTGACGCTGCTG
Oligonucleotide,fluorescence intensity [a.u.]
GAAGAACGATACGCCCTCGTGTATATACAGTATTAG,550
GAACAACTTCCCGGTGACGAGAAAAAGAAACGTTAG,547
GAAGACCATTCATTACTCGTGCGGAACCAGTAATAG,541
CTATCACACGTCCGTCATGTCTACTTTGAGTCATTC,568
GAACCGCGGTCGTGCTGCGTGATCAGCTACATGTAG,1090
GAACTTTTCTGGATGGGCGTGATTGTATTAGCTTAG,738
CTACATATCACTTAGTACGTGATAGTGCCCAAATTC,601
CCTAACTACTATACACACGAGAGATAGCTTCGTACA,504

# Sample 3
# Target: Max dimerization protein 1, bHLH-zipper, MAX partner unstated (MXD1, Homo sapiens, UniProt Q05195, residues 56-136)
# Method: protein-binding microarray
# Molecule type: double-stranded DNA, one strand shown
# Sample: in vitro
# Tested at: not given
# Setting: k-mer, scored over probes, only values ≥0.25
# Direction: higher = stronger binding
# Residues (chain): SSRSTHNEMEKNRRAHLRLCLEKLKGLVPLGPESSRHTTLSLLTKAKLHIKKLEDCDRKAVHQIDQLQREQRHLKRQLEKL
Oligonucleotide,E-score
AAAAACGT,0.259
AAATATTA,0.288
CCACCAGA,0.28
CGTGTCGC,0.328
CACCGTGG,0.26
CCCCATGC,0.389
CACGTGGC,0.489
ACATGCGC,0.433

# Further values, each from its own experiment
Molecule,target,read-out,molecule type,tested at,quantity,result
RIEQLYPFA,"HLA class I histocompatibility antigen, A alpha chain, allele A*80:01 (Homo sapiens, UniProt P04439)",peptide-MHC binding,peptide,concentration not given,binding,inactive

# Some of these lines once more (sample 2):
Oligonucleotide,fluorescence intensity [a.u.]
CTATCACACGTCCGTCATGTCTACTTTGAGTCATTC,568
GAACCGCGGTCGTGCTGCGTGATCAGCTACATGTAG,1090
